{"data": "Measurements collected from several papers", "note": "Parts stem from different laboratories: compare values within a part only.", "UniProt P21673, sequence (whole entry, looked up)": "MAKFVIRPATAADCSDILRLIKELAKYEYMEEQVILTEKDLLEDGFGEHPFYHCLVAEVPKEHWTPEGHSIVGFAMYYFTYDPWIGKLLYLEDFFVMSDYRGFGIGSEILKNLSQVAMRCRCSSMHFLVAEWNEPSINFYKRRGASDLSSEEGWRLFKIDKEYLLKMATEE", "UniProt Q96SW2, sequence (whole entry, looked up)": "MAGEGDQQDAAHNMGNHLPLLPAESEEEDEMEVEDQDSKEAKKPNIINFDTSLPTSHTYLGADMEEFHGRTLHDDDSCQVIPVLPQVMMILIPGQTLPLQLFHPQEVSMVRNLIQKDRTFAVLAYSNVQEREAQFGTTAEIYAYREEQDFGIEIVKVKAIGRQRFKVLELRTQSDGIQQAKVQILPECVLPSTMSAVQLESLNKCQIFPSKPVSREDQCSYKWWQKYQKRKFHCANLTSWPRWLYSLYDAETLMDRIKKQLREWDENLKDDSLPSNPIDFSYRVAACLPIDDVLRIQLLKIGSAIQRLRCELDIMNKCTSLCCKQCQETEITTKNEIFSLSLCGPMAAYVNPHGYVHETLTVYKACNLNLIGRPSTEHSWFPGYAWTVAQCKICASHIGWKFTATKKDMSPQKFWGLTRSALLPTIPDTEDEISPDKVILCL", "UniProt Q01959, sequence (whole entry, looked up)": "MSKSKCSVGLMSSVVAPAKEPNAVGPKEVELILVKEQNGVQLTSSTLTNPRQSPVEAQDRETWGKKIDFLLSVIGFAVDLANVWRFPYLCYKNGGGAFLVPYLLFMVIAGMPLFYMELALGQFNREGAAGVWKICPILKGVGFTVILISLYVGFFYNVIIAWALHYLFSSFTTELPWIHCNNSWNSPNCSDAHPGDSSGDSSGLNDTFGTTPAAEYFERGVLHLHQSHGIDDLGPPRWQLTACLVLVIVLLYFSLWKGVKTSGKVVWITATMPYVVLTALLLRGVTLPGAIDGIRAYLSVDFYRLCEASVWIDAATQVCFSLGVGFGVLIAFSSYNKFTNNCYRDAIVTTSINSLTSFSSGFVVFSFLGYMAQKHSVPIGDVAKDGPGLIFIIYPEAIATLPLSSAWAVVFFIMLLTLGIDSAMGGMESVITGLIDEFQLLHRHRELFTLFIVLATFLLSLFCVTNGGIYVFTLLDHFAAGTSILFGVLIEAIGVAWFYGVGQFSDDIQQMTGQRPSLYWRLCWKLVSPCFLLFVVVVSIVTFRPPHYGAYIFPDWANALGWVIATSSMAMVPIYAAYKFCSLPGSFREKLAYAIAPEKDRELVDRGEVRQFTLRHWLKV", "UniProt P31645, sequence (whole entry, looked up)": "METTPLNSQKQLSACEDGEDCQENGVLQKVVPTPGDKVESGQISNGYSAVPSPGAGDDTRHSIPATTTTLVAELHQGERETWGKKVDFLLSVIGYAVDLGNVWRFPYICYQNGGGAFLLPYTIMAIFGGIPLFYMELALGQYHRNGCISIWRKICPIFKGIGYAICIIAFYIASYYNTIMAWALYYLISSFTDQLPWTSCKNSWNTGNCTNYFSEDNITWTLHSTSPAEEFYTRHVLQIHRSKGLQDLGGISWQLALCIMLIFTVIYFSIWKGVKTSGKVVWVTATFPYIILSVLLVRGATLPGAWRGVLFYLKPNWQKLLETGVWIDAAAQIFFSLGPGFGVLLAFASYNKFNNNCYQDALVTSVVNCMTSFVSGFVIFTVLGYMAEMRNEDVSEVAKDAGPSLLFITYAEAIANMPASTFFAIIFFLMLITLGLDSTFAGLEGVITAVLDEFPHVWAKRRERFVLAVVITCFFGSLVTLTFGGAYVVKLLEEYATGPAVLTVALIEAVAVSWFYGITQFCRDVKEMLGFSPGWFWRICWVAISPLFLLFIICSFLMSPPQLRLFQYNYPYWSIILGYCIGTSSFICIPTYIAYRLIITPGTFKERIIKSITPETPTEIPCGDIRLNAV", "UniProt P23975, sequence (whole entry, looked up)": "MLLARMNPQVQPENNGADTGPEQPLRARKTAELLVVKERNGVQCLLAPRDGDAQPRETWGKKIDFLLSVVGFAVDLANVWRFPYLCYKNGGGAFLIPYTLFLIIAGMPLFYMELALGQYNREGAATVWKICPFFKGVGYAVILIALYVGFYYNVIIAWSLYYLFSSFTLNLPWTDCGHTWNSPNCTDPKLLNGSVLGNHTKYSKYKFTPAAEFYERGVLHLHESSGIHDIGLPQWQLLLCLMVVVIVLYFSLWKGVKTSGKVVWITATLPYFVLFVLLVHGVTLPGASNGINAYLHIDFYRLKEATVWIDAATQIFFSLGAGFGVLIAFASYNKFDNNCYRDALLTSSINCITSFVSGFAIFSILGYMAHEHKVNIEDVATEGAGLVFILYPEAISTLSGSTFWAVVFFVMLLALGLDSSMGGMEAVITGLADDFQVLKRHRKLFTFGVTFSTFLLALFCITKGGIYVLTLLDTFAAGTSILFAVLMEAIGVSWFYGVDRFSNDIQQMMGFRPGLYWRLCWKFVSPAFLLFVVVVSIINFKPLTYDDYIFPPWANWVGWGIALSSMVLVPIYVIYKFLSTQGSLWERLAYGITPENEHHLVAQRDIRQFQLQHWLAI", "UniProt Q9UKS7, sequence (whole entry, looked up)": "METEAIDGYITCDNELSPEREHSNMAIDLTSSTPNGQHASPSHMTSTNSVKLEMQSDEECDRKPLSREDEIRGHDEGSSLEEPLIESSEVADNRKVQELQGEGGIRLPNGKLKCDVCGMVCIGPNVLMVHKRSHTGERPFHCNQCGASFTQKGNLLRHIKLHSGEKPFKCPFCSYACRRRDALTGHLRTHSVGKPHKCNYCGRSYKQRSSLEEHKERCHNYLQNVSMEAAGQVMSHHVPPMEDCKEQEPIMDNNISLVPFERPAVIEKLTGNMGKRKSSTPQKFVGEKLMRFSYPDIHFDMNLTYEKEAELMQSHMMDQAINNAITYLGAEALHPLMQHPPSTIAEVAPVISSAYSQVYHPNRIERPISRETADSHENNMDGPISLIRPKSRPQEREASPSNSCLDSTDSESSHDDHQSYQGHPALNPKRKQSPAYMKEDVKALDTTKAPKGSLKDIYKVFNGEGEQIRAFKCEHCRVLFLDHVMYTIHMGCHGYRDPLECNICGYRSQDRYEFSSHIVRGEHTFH"}
{"data": "Block 1", "organism": "Sarcocystis neurona", "effect on": "parasite growth", "tested at": "10 µM"}
{"SMILES": "O=C1Nc2ccc(Cl)cc2C(c2ccccc2Cl)=NC1O (stereo not drawn)", "inhibition [%]": -25.3}
{"SMILES": "CN1C(=O)CN=C(c2ccccc2)c2cc(Cl)ccc21", "inhibition [%]": 31}
{"SMILES": "COc1ccc2[nH]cc(CCN)c2c1", "inhibition [%]": -26.4}
{"data": "Block 2", "target": "Calcium/calmodulin-dependent protein kinase type II subunit alpha (CAMK2A, Homo sapiens, UniProt Q9UQM7)", "effect on": "enzyme activity", "mode": "inhibitor", "tested at": "10 µM", "UniProt Q9UQM7, sequence (whole entry, looked up)": "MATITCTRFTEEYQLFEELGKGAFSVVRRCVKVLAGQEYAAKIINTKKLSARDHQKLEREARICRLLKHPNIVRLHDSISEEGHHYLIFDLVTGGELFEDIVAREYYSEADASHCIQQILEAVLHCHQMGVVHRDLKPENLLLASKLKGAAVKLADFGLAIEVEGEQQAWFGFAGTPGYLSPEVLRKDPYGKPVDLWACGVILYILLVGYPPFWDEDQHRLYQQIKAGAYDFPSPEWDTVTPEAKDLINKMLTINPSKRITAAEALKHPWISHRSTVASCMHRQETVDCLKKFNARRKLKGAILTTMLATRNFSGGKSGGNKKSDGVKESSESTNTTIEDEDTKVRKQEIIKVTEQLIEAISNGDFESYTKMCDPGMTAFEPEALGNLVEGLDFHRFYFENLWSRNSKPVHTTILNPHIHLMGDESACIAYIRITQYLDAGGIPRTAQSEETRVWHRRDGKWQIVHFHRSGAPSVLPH"}
{"Structure (SMILES)": "CC1=CC(=O)[C@@H](O)[C@]2(C)[C@H]3[C@@H](O)[C@H](O)[C@@]4(CO)OC[C@@]35[C@@H](C[C@@H]12)OC(=O)[C@H](O)[C@]54O", "inhibition [%]": 3}
{"Structure (SMILES)": "CC1=C2C[C@H]3[C@@H](CC(=O)[C@H]4C[C@@H](O)CC[C@@]43C)[C@@H]2CC[C@]12O[C@@H]1C[C@H](C)CN[C@H]1[C@H]2C", "inhibition [%]": 7}
{"Structure (SMILES)": "CC(C)[C@H]1OC(=O)[C@H](Cc2ccccc2)N(C)C(=O)[C@@H](C(C)C)OC(=O)[C@H](Cc2ccccc2)N(C)C(=O)[C@@H](C(C)C)OC(=O)[C@H](Cc2ccccc2)N(C)C1=O", "inhibition [%]": 38}
{"Structure (SMILES)": "CN(CC(=O)O)C(=N)NP(=O)(O)O", "inhibition [%]": -11}
{"data": "Block 3", "cell line": "mouse MPNST tumor cells", "method": "high-content immunofluorescence imaging", "refers to": "nuclear SOX9", "tested at": "10 µM", "time": "12 h", "notes": "mean of 2 replicates", "reference": "DMSO control", "direction": "higher = more nuclear SOX9"}
{"Structure (SMILES)": "C[C@]12CC[C@@H]3c4ccc(OC(=O)N(CCCl)CCCl)cc4CC[C@H]3[C@@H]1CC[C@@H]2O", "nuclear SOX9 intensity": "121 % of DMSO"}
{"Structure (SMILES)": "CCCC[N+]1(C)C2CC(OC(=O)C(CO)c3ccccc3)CC1C1OC12 (stereo not drawn)", "nuclear SOX9 intensity": "93.8 % of DMSO"}
{"Structure (SMILES)": "CC(=O)Nc1ccc(Cc2ccc(NC(C)=O)cc2)cc1", "nuclear SOX9 intensity": "93.1 % of DMSO"}
{"Structure (SMILES)": "CCC1(CC)C(=O)C=CNC1=O", "nuclear SOX9 intensity": "98.2 % of DMSO"}
{"Structure (SMILES)": "O=C1CN=C(c2cccc(Br)c2)c2oc3ccccc3c2N1", "nuclear SOX9 intensity": "127 % of DMSO"}
{"data": "Block 4", "Compound": "CN(C)C(=O)c1sc2nc(N3CCC(S(C)(=O)=O)CC3)cc(C(F)(F)F)c2c1N", "effect on": "ligand displacement", "tested at": "10 µM"}
{"target": "SLC6A2 (Homo sapiens, UniProt P23975)", "inhibition [%]": 1.7}
{"target": "SLC6A3 (Homo sapiens, UniProt Q01959)", "inhibition [%]": 80.5}
{"target": "SLC6A4 (Homo sapiens, UniProt P31645)", "inhibition [%]": 18.1}
{"data": "Block 5", "cell line": "HEK-293T/ACE2", "tested at": "10 µM", "time": "16 h", "reference": "vehicle"}
{"Structure (SMILES)": "CO/N=C(\\C(=O)N[C@@H]1C(=O)N2C(C(=O)O)=C(C[N+]3(C)CCCC3)CS[C@H]12)c1csc(N)n1", "viability [%]": 98.8}
{"Structure (SMILES)": "CC1(C)O[C@@H]2[C@@H](CO[C@@]3(COS(N)(=O)=O)OC(C)(C)O[C@@H]23)O1", "viability [%]": 102}
{"Structure (SMILES)": "O=C(O)c1ccccc1O", "viability [%]": 101}
{"Structure (SMILES)": "NS(=O)(=O)c1cc2c(cc1Cl)N=CNS2(=O)=O", "viability [%]": 103}
{"Structure (SMILES)": "O=c1[nH]c(=O)n([C@H]2C[C@H](O)[C@@H](CO)O2)cc1I", "viability [%]": 94.9}
{"Structure (SMILES)": "C[C@H](CCC(=O)O)[C@H]1CC[C@H]2[C@@H]3[C@@H](O)C[C@@H]4C[C@H](O)CC[C@]4(C)[C@H]3CC[C@]12C", "viability [%]": 103}
{"Structure (SMILES)": "Oc1ncnc2[nH]ncc12", "viability [%]": 102}
{"Structure (SMILES)": "NC[C@H]1O[C@H](O[C@H]2[C@H](O)[C@@H](O[C@H]3O[C@H](CO)[C@@H](O)[C@H](N)[C@H]3O)[C@H](N)C[C@@H]2N)[C@H](O)[C@@H](O)[C@@H]1O", "viability [%]": 102}
{"Structure (SMILES)": "Nc1ccc(S(=O)(=O)Nc2nccs2)cc1", "viability [%]": 105}
{"Structure (SMILES)": "O=C(O)CCCCCCCC(=O)O", "viability [%]": 101}
{"Structure (SMILES)": "N[C@@H](C(=O)N[C@@H]1C(=O)N2C(C(=O)O)=C(Cl)CS[C@H]12)c1ccccc1", "viability [%]": 100}
{"Structure (SMILES)": "CCC(=O)NCC[C@@H]1CCc2ccc3c(c21)CCO3", "viability [%]": 96}
{"Structure (SMILES)": "CCN(CC)CCOC(=O)c1ccc(N)cc1", "viability [%]": 97.7}
{"Structure (SMILES)": "CC[C@H](C)C(=O)O[C@H]1C[C@H](O)C=C2C=C[C@H](C)[C@H](CC[C@@H](O)C[C@@H](O)CC(=O)O)[C@H]21", "viability [%]": 97.4}
{"Structure (SMILES)": "O=C(O)CCCc1ccccc1", "viability [%]": 100}
{"Structure (SMILES)": "Nc1ccn([C@@H]2CS[C@H](CO)O2)c(=O)n1", "viability [%]": 103}
{"Structure (SMILES)": "C[N+](C)(C)CCCCCCCCCC[N+](C)(C)C", "viability [%]": 99.5}
{"Structure (SMILES)": "CC12CC3CC(C)(C1)CC(N)(C3)C2", "viability [%]": 100}
{"data": "Single results of other studies"}
{"SMILES": "COc1cc(-c2cc(=O)c3c(O)cc(O)cc3o2)cc(OC)c1O", "tested on": "Diamine acetyltransferase 1 (Homo sapiens, UniProt P21673)", "assay": "inhibitor", "conditions": "10 µM", "scale": "reference: control", "measurement": "remaining activity", "result": "91.7%"}
{"SMILES": "COc1cc(=O)n(-c2ccccc2)cc1C(=O)N1CCC2(CC1)OCCO2", "system": "mouse, microsomes or S9", "conditions": "2 µM, 0.5 h", "measurement": "remaining compound", "result": "77.8%"}
{"SMILES": "O=C1CCC(N2Cc3c(ccc4c3OCC43CCN(Cc4ccsc4)CC3)C2=O)C(=O)N1 (stereo not drawn)", "tested on": "CRBN/Zinc finger protein Helios (Homo sapiens, UniProt Q96SW2+Q9UKS7)", "assay": "degrader, HiBiT", "system": "HEK293", "conditions": "0.1694 nM", "measurement": "protein remaining", "result": "100%"}
